Measurements from different studies.
Compare with care: the assays were run in different laboratories. Numbers after ± are the reported error.
SYK: Tyrosine-protein kinase SYK (SYK, Homo sapiens, UniProt P43405)
STK24: Serine/threonine-protein kinase 24 (STK24, Homo sapiens, UniProt Q9Y6E0)
Sequence of UniProt P42337 (whole entry, unmodified, looked up): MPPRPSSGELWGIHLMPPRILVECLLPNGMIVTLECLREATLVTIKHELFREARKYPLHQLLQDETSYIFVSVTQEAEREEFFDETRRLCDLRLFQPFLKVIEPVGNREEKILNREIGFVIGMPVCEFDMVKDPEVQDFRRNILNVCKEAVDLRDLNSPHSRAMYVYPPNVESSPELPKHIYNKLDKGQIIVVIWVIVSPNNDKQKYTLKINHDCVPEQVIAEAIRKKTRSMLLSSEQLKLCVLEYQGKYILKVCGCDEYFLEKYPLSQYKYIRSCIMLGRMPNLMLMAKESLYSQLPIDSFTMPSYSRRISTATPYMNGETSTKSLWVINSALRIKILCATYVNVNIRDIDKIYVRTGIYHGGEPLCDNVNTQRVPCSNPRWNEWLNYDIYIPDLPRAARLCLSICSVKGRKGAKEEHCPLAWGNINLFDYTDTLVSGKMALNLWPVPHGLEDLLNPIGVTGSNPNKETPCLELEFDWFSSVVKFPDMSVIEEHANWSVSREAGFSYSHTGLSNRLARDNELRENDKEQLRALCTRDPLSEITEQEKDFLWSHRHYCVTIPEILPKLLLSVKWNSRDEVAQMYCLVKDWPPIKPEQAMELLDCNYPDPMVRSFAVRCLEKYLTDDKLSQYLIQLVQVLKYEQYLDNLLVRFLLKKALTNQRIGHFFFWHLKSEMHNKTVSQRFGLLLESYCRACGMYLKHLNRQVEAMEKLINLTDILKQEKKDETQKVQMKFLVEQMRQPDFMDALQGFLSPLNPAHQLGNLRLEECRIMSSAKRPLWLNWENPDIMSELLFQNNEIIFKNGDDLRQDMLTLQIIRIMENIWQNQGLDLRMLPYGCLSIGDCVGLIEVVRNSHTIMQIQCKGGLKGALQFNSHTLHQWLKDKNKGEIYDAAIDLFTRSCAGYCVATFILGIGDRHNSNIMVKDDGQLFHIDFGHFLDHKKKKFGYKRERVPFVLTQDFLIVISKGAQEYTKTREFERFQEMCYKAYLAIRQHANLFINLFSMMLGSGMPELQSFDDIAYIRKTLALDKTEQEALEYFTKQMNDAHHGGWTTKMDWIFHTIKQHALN
Sequence of UniProt Q9Y6E0 (whole entry, looked up): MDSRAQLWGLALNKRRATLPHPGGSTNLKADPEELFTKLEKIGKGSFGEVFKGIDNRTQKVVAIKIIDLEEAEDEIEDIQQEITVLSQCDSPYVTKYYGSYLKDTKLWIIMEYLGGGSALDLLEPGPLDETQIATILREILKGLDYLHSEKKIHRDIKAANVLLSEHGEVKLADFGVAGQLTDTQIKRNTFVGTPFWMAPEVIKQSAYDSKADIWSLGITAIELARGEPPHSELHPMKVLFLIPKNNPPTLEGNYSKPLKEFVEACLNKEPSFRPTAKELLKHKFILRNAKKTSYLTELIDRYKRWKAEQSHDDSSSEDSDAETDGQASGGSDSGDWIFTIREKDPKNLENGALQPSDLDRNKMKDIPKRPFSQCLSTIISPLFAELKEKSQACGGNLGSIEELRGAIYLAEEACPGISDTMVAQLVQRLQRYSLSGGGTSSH
Sequence of UniProt P34947 (whole entry, looked up): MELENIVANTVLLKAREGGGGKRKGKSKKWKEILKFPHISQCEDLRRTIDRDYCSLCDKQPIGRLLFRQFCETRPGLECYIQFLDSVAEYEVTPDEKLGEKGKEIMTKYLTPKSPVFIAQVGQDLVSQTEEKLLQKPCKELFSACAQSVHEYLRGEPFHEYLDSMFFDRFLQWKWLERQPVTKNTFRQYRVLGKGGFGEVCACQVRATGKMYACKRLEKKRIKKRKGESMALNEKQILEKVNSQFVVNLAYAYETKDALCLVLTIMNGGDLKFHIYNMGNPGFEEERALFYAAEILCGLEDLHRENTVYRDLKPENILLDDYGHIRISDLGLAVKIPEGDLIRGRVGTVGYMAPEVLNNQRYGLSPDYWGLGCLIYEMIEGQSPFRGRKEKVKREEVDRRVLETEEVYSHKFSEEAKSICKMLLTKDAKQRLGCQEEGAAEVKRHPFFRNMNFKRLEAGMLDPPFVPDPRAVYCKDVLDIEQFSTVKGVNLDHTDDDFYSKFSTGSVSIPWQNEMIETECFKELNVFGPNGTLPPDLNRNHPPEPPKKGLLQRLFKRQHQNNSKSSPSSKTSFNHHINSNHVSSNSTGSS
Sequence of UniProt P30043 (whole entry, looked up): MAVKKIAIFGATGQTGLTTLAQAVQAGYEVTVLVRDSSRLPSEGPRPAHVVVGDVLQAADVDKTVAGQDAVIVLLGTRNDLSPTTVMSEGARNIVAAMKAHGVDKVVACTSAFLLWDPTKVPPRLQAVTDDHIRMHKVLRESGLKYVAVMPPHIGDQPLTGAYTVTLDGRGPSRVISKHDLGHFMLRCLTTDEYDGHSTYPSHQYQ
Sequence of UniProt P49840 (whole entry, looked up): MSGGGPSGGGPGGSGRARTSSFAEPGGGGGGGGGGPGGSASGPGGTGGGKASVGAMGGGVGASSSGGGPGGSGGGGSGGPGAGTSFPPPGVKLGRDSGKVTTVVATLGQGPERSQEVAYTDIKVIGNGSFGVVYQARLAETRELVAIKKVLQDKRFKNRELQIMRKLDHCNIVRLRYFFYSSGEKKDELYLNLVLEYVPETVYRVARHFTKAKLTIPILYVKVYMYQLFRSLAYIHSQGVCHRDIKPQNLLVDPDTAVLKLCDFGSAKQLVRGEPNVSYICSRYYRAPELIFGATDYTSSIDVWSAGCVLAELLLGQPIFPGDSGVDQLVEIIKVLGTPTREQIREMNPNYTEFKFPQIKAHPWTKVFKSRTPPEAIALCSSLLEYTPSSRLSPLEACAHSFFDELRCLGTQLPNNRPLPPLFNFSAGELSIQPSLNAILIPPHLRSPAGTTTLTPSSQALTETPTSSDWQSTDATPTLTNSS
Sequence of UniProt Q9Y345 (whole entry, looked up): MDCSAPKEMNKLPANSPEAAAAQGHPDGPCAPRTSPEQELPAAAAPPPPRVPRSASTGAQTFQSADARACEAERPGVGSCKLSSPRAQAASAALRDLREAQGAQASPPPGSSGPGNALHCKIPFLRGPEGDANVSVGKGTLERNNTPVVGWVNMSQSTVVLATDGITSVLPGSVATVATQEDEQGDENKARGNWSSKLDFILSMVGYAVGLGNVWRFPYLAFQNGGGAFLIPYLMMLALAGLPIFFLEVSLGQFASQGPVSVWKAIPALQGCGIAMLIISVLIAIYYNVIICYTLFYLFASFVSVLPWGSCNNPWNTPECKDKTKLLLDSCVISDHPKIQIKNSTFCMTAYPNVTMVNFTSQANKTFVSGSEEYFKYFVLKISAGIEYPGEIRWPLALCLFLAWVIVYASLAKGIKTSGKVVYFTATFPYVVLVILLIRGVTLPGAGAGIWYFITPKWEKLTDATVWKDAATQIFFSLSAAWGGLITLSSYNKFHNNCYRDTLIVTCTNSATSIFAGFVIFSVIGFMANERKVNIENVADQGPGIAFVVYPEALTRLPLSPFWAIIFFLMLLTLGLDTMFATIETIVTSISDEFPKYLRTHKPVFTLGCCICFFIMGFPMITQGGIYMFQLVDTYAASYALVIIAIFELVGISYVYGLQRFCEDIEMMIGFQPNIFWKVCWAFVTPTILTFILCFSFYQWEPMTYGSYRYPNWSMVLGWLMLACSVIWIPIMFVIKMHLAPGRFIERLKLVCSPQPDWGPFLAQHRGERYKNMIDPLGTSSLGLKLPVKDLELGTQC
Sequence of UniProt P48067 (whole entry, unmodified, looked up): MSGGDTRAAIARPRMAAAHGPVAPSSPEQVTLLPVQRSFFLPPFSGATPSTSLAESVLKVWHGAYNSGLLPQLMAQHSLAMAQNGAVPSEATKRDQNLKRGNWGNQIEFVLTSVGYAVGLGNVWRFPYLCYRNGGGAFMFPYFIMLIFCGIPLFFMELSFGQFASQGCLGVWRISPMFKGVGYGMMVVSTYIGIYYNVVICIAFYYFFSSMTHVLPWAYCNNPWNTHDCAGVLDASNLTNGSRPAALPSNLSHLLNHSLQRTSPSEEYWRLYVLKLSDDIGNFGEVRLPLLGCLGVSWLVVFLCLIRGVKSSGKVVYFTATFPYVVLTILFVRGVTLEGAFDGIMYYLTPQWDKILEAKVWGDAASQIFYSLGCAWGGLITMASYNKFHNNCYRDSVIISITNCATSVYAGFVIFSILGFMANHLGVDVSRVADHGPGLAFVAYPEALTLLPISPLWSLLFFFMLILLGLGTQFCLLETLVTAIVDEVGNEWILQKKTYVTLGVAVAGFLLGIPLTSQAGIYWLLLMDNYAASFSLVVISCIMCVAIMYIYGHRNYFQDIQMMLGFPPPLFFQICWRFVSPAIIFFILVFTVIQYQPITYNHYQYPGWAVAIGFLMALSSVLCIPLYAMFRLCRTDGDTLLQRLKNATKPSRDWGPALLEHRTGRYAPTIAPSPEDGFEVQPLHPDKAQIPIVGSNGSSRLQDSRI
Sequence of UniProt P45983 (whole entry, looked up): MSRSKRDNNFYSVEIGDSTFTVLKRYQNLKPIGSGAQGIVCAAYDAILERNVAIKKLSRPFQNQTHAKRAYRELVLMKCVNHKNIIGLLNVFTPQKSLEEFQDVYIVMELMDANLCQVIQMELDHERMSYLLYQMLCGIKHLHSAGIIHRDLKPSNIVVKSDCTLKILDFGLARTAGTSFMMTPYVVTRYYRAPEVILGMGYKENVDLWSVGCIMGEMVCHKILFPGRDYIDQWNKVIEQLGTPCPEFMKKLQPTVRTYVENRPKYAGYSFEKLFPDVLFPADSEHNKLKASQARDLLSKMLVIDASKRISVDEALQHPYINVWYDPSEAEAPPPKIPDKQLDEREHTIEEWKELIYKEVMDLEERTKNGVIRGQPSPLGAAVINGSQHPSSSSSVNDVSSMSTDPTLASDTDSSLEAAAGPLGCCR

| SMILES | target | assay | setting | scale | remaining activity |
| --- | --- | --- | --- | --- | --- |
| COc1cc(F)ccc1-c1ncnc(Nc2cccc(C[S@](C)(=N)=O)c2)n1 | Mast/stem cell growth factor receptor Kit (KIT, Homo sapiens, UniProt P10721) | kinase activity | 10 µM, added: 10 µM ATP |  | 6% |
| COc1cc(Nc2ncc3c(n2)-c2ccc(Cl)cc2C(c2c(F)cccc2OC)=NC3)ccc1C(=O)O | IGF1R | kinase activity | 1 µM |  | 100% |
| Cc1cc(Nc2cc(N3CCN(C)CC3)nc(Sc3ccc(NC(=O)C4CC4)cc3)n2)[nH]n1 | G protein-coupled receptor kinase 5 (GRK5, Homo sapiens, UniProt P34947) | kinase activity, KinaseProfiler | 0.03 µM, species human | relative to: control | 97% |
| CN(C)CC#Cc1ccc2[nH]c3c(c2c1)-c1nc(N)ncc1CCC3 | Tau-tubulin kinase 1 (TTBK1, Homo sapiens, UniProt Q5TCY1) | kinase activity, inhibitor, radiometric | 1 µM, added: ATP at Km |  | 92% |
| CNc1ncc2c(/C=C/C(=O)N3CCC(OC)CC3)nn(Cc3cccc(C(F)(F)F)c3)c2n1 | Dual specificity tyrosine-phosphorylation-regulated kinase 1A (DYRK1A, Homo sapiens, UniProt Q13627) | kinase activity, inhibitor | 1 µM | relative to: untreated control | 98% |
| Nc1nc(Nc2ccccc2)sc1C(=O)c1c(F)cccc1F | AMP-activated protein kinase | enzyme activity, inhibitor | 10 µM |  | 67% |
| Cc1ccc(NC(=O)c2ccc(C)c(C(F)(F)F)c2)cc1C#Cc1nn(C2CCC(O)CC2)c2ncnc(N)c12 (stereo not drawn) | Phosphatidylinositol 4,5-bisphosphate 3-kinase catalytic subunit alpha isoform, with p65 alpha (Pik3ca, Mus musculus, UniProt P42337) | enzyme activity, inhibitor | 10 µM, p110a/p65a)(m mouse, added: ATP 10 µM |  | 94% |
| O=c1cc(-c2ccccc2)nc2cc(-c3ccco3)[nH]n12 | Flavin reductase (NADPH) (BLVRB, Homo sapiens, UniProt P30043) |  | concentration not given |  | 85% |
| COc1cc(N2CCN(C)CC2)ccc1Nc1nc(N)n(C(=O)NCc2c(Cl)cccc2Cl)n1 | SYK | enzyme activity | 10 µM | relative to: control | 30% |
| C[C@@H](Oc1ccc(S(C)(=O)=O)cc1C(=O)N1C[C@@H]2C[C@]2(c2cc(C(F)(F)F)on2)C1)C(F)(F)F | Sodium- and chloride-dependent glycine transporter 1 (SLC6A9, Homo sapiens, UniProt P48067, G373S) | glycine uptake, inhibitor, [3H]glycine uptake | 0.003 µM, G319S mutant, log concentration 3, added: [3H]glycine | relative to: no inhibitor | 82.4% |
| NC/C(=C\F)COc1cccc(Cn2c(=S)[nH]c(=O)c3[nH]cnc32)c1 | Peroxidasin homolog (PXDN, Homo sapiens, UniProt Q92626) | Amplex UltraRed | 2.5 µM | relative to: control | 88% |
| O=C(NC1CCC1)c1ccc2nc(-c3cccc(NS(=O)(=O)NCCN4CCCCC4)c3)cn2c1 | Glycogen synthase kinase-3 alpha (GSK3A, Homo sapiens, UniProt P49840) | enzyme activity | 10 µM |  | 90% |
| COc1cc(N2CCN(C)CC2)ccc1Nc1nc(N)n(C(=S)NCc2c(Cl)cccc2Cl)n1 | Ephrin type-B receptor 6 (EPHB6, Homo sapiens, UniProt O15197) | enzyme activity | 10 µM | relative to: control | 0% |
| C=CC(=O)N1CCC[C@@H](n2nc(-c3ccc(Oc4ccccc4)cc3)c3c(N)ncnc32)C1 | STK24 | kinase activity, inhibitor, HotSpot radiometric | 100 nM, added: ATP 10 µM |  | 95.7 ± 1.3% |
| O=C(O)c1ccc(Nc2ncc3c(n2)-c2ccc(Cl)cc2C(c2c(F)cccc2F)=NC3)cc1 | human IR(h) | kinase activity | 1 µM |  | 88% |
| COc1cc(-c2cncc3c2CN(C)Cc2cc(N4CCNCC4)ccc2-3)cc(OC)c1OC | Phosphatidylinositol 4,5-bisphosphate 3-kinase catalytic subunit alpha isoform, with p85 alpha (Pik3ca, Mus musculus, UniProt P42337, E545K) | kinase activity | 1 µM, p110a(E545K)/p85a)(m mouse, added: ATP 10 µM | relative to: DMSO | 108% |
| Nc1ncc2c(n1)-c1c([nH]c3ccc(-c4ccc(F)cc4)cc13)CCC2 | Mitogen-activated protein kinase kinase kinase kinase 5 (MAP4K5, Homo sapiens, UniProt Q9Y4K4) | kinase activity, inhibitor, radiometric | 1 µM, added: ATP at Km |  | 47% |
| CNCC(=O)O | Sodium- and chloride-dependent glycine transporter 2 (Homo sapiens, UniProt Q9Y345) | glycine uptake, inhibitor, [3H]glycine uptake | 5000 µM, log concentration 5, added: [3H]glycine | relative to: no inhibitor | 50.4% |
| O=C1NC(=O)/C(=C/c2ccc(-c3ccc(F)cc3O)o2)S1 | Dual specificity protein kinase TTK (TTK, Homo sapiens, UniProt P33981) | enzyme activity | 10 µM |  | 56% |
| Cc1[nH]c(/C=C2\C(=O)Nc3ccc(F)cc32)c(C)c1C(=O)N[C@H]1CCN(C(=O)N(C)C)C1 | SYK | kinase activity, inhibitor | 0.1 µM | relative to: no-compound control | 105% |
| Cc1cc(NC(=O)c2cccc(NC(=O)/C=C/CN(C)C)c2)ccc1Nc1nccc(-c2cccnc2)n1 | Mitogen-activated protein kinase 8 (MAPK8, Homo sapiens, UniProt P45983) | enzyme activity, inhibitor | 0.06097 µM, 18 h, unit not given, added: GSH 10 mM pre-incubation | relative to: vehicle | 1.15 |
| C=CC(=O)N1CCC[C@@H](n2nc(-c3ccc(Oc4ccccc4)cc3)c3c(N)ncnc32)C1 | Vascular endothelial growth factor receptor 1 (FLT1, Homo sapiens, UniProt P17948) |  | 10 µM |  | 52.1% |
| COc1ccc(F)cc1C(=O)NCc1ccc(-c2nn([C@@H](C)C(F)(F)F)c(N)c2C(N)=O)cc1 | STK24 | kinase activity, inhibitor, HotSpot radiometric | 100 nM, added: ATP 10 µM |  | 92.4 ± 0.3% |
| Cc1cnc(NC2CCOCC2)nc1-n1cnc(C(=O)NC(CN)c2cc(F)cc(Cl)c2)c1 (stereo not drawn) | PI3K p110alpha/p65alpha (mouse) | enzyme activity, inhibitor, radiometric kinase | 1 µM |  | 100% |
| C=CC(=O)N1CCC([C@@H]2CCNc3c(C(N)=O)c(-c4ccc(Oc5ccccc5)cc4)nn32)CC1 | Tyrosine-protein kinase Yes (YES1, Homo sapiens, UniProt P07947) | kinase activity, inhibitor, HotSpot radiometric | 100 nM, added: ATP 10 µM |  | 67 ± 0.4% |
| CC(C)OCCn1c(=S)[nH]c(=O)c2[nH]ccc21 | Myeloperoxidase (MPO, Homo sapiens, UniProt P05164) | chlorination activity, iodide-catalysed TMB HOCl production | 10 µM | relative to: control | 3.8% |
| Nc1ncnc2c1ncn2C1OC(CSCCNCc2cccc(-c3ccccc3)c2)C(O)C1O (stereo not drawn) | DNA adenine methyltransferase CamA (Clostridioides difficile, UniProt Q183J3) |  | 10 µM |  | 11.7% |
